Experimental data collected from several papers.
Protocols differ between the studies behind these lines. ± gives the spread as reported.
PPO3: PPO3 (Agaricus bisporus, UniProt C7FF04)
UniProt C7FF04, sequence (whole entry, looked up): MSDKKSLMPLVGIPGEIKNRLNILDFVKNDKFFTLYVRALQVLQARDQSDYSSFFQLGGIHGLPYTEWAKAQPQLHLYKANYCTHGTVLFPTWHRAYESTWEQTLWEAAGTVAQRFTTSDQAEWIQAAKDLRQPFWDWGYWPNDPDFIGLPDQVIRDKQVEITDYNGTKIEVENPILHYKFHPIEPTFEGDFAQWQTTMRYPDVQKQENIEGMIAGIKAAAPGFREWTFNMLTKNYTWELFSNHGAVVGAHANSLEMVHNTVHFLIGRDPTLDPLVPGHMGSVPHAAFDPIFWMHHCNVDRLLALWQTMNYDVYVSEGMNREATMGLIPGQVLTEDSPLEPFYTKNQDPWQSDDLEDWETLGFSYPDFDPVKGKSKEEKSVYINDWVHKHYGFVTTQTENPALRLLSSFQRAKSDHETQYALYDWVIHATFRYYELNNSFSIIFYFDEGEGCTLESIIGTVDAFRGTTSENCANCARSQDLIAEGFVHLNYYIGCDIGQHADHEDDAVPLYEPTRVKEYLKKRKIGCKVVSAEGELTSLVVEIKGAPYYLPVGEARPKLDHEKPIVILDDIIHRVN
CNGA1: Cyclic nucleotide-gated channel alpha-1 (CNGA1, Bos taurus, UniProt Q00194)
UniProt Q00194, sequence (whole entry, looked up): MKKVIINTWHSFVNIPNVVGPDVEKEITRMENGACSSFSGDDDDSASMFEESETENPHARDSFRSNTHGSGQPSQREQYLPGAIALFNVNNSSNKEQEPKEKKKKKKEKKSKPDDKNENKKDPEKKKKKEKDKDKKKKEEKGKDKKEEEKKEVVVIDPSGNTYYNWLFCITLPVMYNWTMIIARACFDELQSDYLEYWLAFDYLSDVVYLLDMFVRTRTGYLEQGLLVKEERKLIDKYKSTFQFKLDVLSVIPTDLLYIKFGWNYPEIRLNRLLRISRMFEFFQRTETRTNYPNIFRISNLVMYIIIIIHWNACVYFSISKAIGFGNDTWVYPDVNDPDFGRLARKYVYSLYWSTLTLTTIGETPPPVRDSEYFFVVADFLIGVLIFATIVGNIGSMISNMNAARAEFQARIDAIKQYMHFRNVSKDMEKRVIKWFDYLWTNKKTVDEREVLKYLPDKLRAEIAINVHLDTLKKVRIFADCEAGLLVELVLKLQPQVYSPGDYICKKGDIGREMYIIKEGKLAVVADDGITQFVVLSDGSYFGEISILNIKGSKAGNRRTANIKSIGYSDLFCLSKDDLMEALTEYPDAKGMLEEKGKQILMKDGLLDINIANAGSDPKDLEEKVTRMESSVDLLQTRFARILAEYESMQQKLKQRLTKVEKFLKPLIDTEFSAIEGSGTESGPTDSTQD
T1: DNA hairpin, hairpin, TTTT loop; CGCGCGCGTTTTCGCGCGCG
T2: dsDNA, hairpin; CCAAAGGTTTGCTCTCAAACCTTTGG
UniProt Q18179, sequence (whole entry, looked up): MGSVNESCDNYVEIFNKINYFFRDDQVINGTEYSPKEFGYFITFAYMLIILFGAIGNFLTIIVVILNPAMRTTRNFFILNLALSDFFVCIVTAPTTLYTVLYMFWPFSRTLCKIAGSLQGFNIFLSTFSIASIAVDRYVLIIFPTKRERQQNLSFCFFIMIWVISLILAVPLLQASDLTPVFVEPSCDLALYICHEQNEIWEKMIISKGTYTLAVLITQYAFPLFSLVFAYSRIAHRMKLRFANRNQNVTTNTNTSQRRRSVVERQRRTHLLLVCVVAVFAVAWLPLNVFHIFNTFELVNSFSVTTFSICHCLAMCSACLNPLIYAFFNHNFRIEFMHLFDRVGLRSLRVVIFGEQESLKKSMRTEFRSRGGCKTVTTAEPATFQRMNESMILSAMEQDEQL
UniProt Q92847, sequence (whole entry, looked up): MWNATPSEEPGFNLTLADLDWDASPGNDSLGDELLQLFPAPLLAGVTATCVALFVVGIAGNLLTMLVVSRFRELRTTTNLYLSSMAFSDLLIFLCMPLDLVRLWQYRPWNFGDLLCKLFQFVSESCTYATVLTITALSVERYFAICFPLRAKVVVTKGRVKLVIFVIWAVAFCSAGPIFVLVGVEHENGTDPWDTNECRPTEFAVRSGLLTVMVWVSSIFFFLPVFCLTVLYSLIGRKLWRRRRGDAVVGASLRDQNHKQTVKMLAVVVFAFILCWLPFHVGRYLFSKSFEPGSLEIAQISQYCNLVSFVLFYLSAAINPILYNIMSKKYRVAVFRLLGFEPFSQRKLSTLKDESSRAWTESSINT
UniProt Q04609, sequence (whole entry, looked up): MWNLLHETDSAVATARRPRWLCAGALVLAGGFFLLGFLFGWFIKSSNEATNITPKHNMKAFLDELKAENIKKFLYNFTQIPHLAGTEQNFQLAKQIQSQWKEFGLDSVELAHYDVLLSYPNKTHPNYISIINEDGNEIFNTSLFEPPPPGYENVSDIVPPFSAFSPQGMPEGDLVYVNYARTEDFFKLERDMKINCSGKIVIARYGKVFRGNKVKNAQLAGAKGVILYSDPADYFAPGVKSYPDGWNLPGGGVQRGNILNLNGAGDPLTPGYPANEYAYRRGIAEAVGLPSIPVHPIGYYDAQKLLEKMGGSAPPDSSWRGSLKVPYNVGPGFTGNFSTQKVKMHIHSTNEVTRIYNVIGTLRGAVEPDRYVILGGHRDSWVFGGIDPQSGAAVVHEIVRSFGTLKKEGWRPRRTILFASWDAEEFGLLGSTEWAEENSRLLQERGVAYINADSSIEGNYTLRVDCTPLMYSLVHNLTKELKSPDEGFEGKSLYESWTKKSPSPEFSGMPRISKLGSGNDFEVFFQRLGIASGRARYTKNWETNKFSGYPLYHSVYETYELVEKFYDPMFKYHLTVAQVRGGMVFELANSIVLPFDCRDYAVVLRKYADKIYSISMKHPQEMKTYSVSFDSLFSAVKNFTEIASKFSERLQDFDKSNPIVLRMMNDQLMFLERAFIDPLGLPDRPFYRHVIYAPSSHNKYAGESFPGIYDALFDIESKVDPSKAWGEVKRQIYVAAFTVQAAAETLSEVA
UniProt Q06911, sequence (whole entry, looked up): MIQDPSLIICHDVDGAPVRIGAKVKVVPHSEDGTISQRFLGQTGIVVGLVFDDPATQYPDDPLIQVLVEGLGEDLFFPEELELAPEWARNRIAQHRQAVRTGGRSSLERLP
UniProt P60900, sequence (whole entry, looked up): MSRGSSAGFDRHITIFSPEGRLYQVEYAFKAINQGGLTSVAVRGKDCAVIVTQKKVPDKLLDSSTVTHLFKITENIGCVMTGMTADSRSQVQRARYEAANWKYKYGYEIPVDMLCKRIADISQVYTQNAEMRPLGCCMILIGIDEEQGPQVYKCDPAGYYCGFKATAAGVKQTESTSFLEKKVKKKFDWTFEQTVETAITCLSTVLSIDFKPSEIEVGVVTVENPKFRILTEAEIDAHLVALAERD
UniProt P32239, sequence (whole entry, looked up): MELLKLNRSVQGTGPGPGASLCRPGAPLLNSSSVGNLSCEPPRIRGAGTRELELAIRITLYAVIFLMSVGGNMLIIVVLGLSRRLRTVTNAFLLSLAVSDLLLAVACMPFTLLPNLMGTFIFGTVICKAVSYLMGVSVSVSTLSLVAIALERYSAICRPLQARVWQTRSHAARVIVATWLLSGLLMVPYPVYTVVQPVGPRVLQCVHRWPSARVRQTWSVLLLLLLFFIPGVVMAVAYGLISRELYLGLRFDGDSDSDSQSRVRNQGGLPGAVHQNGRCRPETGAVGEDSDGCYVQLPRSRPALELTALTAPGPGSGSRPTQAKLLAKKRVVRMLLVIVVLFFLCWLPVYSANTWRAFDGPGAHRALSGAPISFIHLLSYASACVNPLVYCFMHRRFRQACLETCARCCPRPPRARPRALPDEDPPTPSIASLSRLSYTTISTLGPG
UniProt O66465, sequence (whole entry, unmodified, looked up): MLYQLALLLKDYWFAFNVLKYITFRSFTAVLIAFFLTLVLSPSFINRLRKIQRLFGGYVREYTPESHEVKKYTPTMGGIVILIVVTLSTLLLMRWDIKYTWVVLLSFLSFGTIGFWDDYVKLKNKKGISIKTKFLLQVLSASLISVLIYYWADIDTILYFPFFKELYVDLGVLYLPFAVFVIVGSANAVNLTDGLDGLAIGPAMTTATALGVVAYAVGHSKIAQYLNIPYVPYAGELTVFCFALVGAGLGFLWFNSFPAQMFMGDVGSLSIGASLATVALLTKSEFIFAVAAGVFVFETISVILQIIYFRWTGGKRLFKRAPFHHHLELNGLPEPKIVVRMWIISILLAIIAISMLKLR
UniProt P25787, sequence (whole entry, looked up): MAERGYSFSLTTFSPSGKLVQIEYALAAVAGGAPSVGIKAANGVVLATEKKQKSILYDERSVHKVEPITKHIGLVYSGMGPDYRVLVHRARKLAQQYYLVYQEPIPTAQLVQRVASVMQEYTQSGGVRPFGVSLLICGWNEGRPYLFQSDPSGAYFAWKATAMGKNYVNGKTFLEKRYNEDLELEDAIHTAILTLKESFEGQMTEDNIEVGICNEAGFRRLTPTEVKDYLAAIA
UniProt Q13526, sequence (whole entry, looked up): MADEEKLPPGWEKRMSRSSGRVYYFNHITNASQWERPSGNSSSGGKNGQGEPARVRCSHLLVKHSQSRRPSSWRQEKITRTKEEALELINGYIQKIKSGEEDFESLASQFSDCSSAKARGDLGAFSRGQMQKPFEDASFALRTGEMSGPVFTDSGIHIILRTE

Compound | target | assay | test system | setting | scale | endpoint | result
NC(=O)C[C@H](NC(=O)[C@H](CC(N)=O)NC(=O)[C@H](CCC(=O)O)NC(=O)[C@@H](N)CS)C(=O)O | PPO3 | enzyme activity, inhibitor |  | 50 µM |  | remaining activity | 79.5%
COc1ccc(C(=O)c2c(C(=O)NCCCN(C)C)oc3ccc(Cl)cc3c2=O)cc1OC | Growth hormone secretagogue receptor type 1 (GHSR, Homo sapiens, UniProt Q92847) | β-arrestin-2 recruitment, Tango |  | 1 µM | relative to: baseline | fold activation | ~6 fold
COc1cc(F)c(C(C)C)cc1C1=C(CN2C(=O)O[C@H](c3cc(C(F)(F)F)cc(C(F)(F)F)c3)[C@@H]2C)CC(C)(C)CC1 | Cholesteryl ester transfer protein (Homo sapiens, UniProt P11597) | enzyme activity | healthy male subjects, plasma | oral, 25 mg single dose | relative to: baseline | maximum inhibition | 65.4%
CCNC(=O)[C@H](CC(C)C)NC(=O)[C@H](Cc1c[nH]cn1)NC(=O)CNC(=O)[C@@H](NC(=O)[C@H](C)NC(=O)[C@H](Cc1c[nH]c2ccccc12)NC(=O)[C@H](CCC(N)=O)NC(=O)[C@H](N)Cc1ccccc1)C(C)C | Gastrin-releasing peptide receptor (GRPR, Homo sapiens, UniProt P30550) | FLIPR calcium | PC-3 | 50 nM |  | calcium release | 42 ± 20.4 RFU
[Ru+2].[Ru+2].c1cnc2c(c1)c1nc(-c3ccc(OCCOCCOc4ccc(-c5nc6c7cccnc7c7ncccc7c6[nH]5)cc4)cc3)[nH]c1c1cccnc12.c1cnc2c(c1)ccc1cccnc12.c1cnc2c(c1)ccc1cccnc12.c1cnc2c(c1)ccc1cccnc12.c1cnc2c(c1)ccc1cccnc12 | T1, DNA hairpin, hairpin, TTTT loop | BLI |  | pH 7.04, Na+ 100 mM |  | Kd | 1600 nM
CC1=C(/C=C/C(C)=C/C=C/C(C)=C/C=O)C(C)(C)CCC1 | CNGA1 | channel binding, allosteric model fit |  | open channel |  | association constant K4 | 2e+09 M^-n
CCCC[C@H](NC(=O)CNC(=O)[C@@H]1CCCN1C(=O)CNC(=O)[C@@H]1CCCN1C(=O)CNC(=O)[C@@H]1CCCN1C(=O)CNC(=O)[C@@H]1CCCN1C(=O)CNC(=O)[C@@H]1CCCN1C(=O)CNC(=O)[C@@H]1CCCN1C(=O)CNC(=O)[C@@H]1CCCN1C(=O)CNC(=O)[C@@H]1CCCN1C(=O)CNC(=O)[C@@H]1CCCN1C(=O)[C@H](Cc1c[nH]c2ccccc12)NC(=O)[C@H](CCCNC(=N)N)NC(=O)[C@@H](Cc1ccccc1)NC(=O)[C@H](Cc1c[nH]cn1)NC(=O)[C@H](CCC(=O)O)NC(=O)[C@H](CCCC)NC(=O)[C@H](CO)NC(C)=O)C(=O)NCC(=O)N[C@@H](Cc1c[nH]c2ccccc12)C(=O)N[C@@H](CCCC)C(=O)N[C@@H](CC(=O)O)C(=O)N[C@@H](Cc1ccccc1)C(N)=O | CCKBR/MC4R (Homo sapiens, UniProt P32239+P32245) | bivalent binding | cells expressing CCK2R and MC4R | added: Eu-DTPA-CCK-8 | relative to: single- over dual-expressing cells | IC50 ratio | 2 fold
O=C(CN1CCOc2ccccc21)N(c1ccc(F)cc1)c1ccc(F)cc1 | Proteasome subunit alpha type-2/Proteasome subunit alpha type-6, 20S proteasome (Homo sapiens, UniProt P25787+P60900) | proteolysis, activator, fluorogenic peptide | purified 20S proteasome | added: Suc-LLVY-AMC, Z-LLE-AMC, Boc-LRR-AMC |  | EC200 | 8 ± 0.6 µM
NS(=O)(=O)c1ccc(Nc2nc3nccc(-c4ccc5ccccc5c4)n3n2)cc1 | Carbonic anhydrase 9 (CA9, Homo sapiens, UniProt Q16790) | inhibitor |  |  | relative to: Ki hCA II over Ki CA9 | selectivity ratio | 5.7
CC1=C(/C=C/C=C\C=C\C(C)=C\C=O)C(C)(C)CCC1 | Rhodopsin, apoprotein (opsin) (RHO, Bos taurus, UniProt P02699) |  |  | pigment regenerated |  | absorption maximum | 464 nm
CCOC(=O)[C@H](CCCNC(N)=O)NC(=O)[C@H](Cc1c[nH]c2ccccc12)NC(=O)[C@@H]1CCCCN1C(=O)[C@H](Cc1ccccc1)N(C)C(=O)CCl | Peptidyl-prolyl cis-trans isomerase NIMA-interacting 1 (PIN1, Homo sapiens, UniProt Q13526) |  | PaTu 8988t | single treatment, added: BJP-DTB probe |  | time to loss of engagement | ≤ 72 h
CCCCCCCC(=O)Nc1ccc(C#N)nc1C | Carboxylesterase 3 (CES3, Homo sapiens, UniProt Q6UWW8) | substrate |  | 50 µM, pH 8, 37 °C, enzyme purity 3% |  | specific activity | < 1 pmol/min/µg
CC[C@H](C)[C@H](NC(=O)[C@H](CCCCN)NC(=O)[C@H](CCCCN)NC(=O)[C@@H](NC(=O)[C@H](CCC(=O)O)NC(=O)[C@H](C)NC(=O)[C@H](CCC(=O)O)NC(=O)[C@H](CO)NC(=O)[C@H](CC(C)C)NC(=O)[C@H](CC(=O)O)NC(=O)[C@H](CC(C)C)NC(=O)CNC(=O)[C@H](CCCNC(=N)N)NC(=O)[C@H](CC(C)C)NC(=O)[C@H](CO)NC(=O)CNC(=O)CNC(=O)CNC(=O)CCCC[C@@H]1SC[C@@H]2NC(=O)N[C@@H]21)C(C)C)C(=O)N[C@@H](CC(C)C)C(=O)N[C@@H](CC(=O)O)C(=O)N[C@@H](CCC(=O)O)C(=O)N[C@H](C(=O)N[C@H](C(=O)N[C@@H](CCCCN)C(=O)N[C@@H](CC(=O)O)C(=O)O)C(C)C)[C@@H](C)CC | Fab B11 antibody (human) | binding, biolayer interferometry |  |  | relative to: alanine mutant over wild type | Kd ratio | 1.9
CC(=O)N1CCC[C@H]1C(=O)N[C@@H](CC(C)C)C(=O)NCC(=O)N[C@@H](CC(C)C)C(=O)N[C@@H](CCCNC(=N)N)C(=O)N[C@@H](CO)C(=O)N[C@@H](CCCCN)C(=O)O | Matrix metalloproteinase-9 (MMP9, Homo sapiens, UniProt P14780) | substrate, HPLC |  | 500 µM, 72 h, pH 7.5, 37 °C |  | hydrolysis product | 71%
CC1=C(/C=C/C(C)=C/C=C/C(C)=C/CO)C(C)(C)CCC1 | CNGA1 | cGMP-activated current, inhibitor, inside-out patch clamp | Xenopus oocytes | +100 mV, added: 2 mM cGMP |  | Hill coefficient | 1.4
CC(C)n1c(-c2ccc(-c3ccc(C(=N)N)cc3)s2)nc2cc3nc(-c4ccc(-c5ccc(C(=N)N)cc5)s4)n(C(C)C)c3cc21 | T2, dsDNA, hairpin | SPR |  | pH 7.4, 25 °C, Na+ 100 mM, mass transfer limited |  | Kd | 2 nM
CC(C)C[C@H](NC(=O)CN)C(=O)NCC(=O)N1CCC[C@H]1C(=O)N[C@@H](CCCNC(=N)N)C(=O)N1CCC[C@H]1C(=O)N[C@@H](CC(C)C)C(=O)N[C@@H](CCCNC(=N)N)C(=O)N[C@@H](Cc1ccccc1)C(=O)O | Putative neuropeptide Y receptor 11 (npr-11, Caenorhabditis elegans, UniProt Q18179) | agonist, cAMP reporter gene |  | concentration not given |  | receptor activation | inactive
CC(C)C[C@H](NC(=O)[C@H](CC(N)=O)NC(=O)[C@H](CCCNC(=N)N)NC(=O)[C@@H](N)CS)C(=O)O | PPO3 | enzyme activity, inhibitor |  | 12.5 µM |  | remaining activity | 78.4%
O=C(O)Cc1ccccc1O | p-hydroxyphenylacetate 3-hydroxylase, reductase component (C1-hpah, Acinetobacter baumannii, UniProt Q6Q271) | ITC |  | pH 7 |  | ΔG | -4.99 ± 0.04 kcal/mol
O=C([O-])CN1CCN(CC(=O)[O-])CCN(C(CCC(=O)NCCCCCN(CCCC[C@H](NC(=O)N[C@@H](CCC(=O)O)C(=O)O)C(=O)O)C(=O)c2ccc(I)cc2)C(=O)O)CCN(CC(=O)[O-])CC1.[68Ga+3] (stereo partly shown) | Glutamate carboxypeptidase 2 (FOLH1, Homo sapiens, UniProt Q04609) | PET/CT | prostate cancer patients, primary prostate lesions | 60 min post-injection |  | SUVmax | 18.3 ± 16.2
Cc1nnc(-c2ccc(CNC(=O)CCCCCOc3cccc4c3C(=O)N(C3CCC(=O)NC3=O)C4=O)cc2)nn1 (stereo not shown) | Bromodomain-containing protein 4 (BRD4, Homo sapiens, UniProt O60885) | degrader, immunoblot | HeLa | concentration not given |  | protein level | no effect
NC(=O)C1CCNC(=O)C(CCCNC(=O)c2cnccn2)NC(=O)C(Cc2ccco2)NC(=O)C(CC2CC2)NC(=O)C=CC(=O)N1 (stereo not shown) | Proto-oncogene tyrosine-protein kinase Src (SRC, Homo sapiens, UniProt P12931) | enzyme activity |  |  |  | cis over trans potency ratio | ~10 fold
CC(C)CC(NC(=O)C(NC(=O)NC(C(=O)O)C(C)C)C1CCNC(=N)N1)C(=O)NCCCNC(C(=O)O)C(OC1OC(CN)C(O)C1O)C1OC(n2ccc(=O)[nH]c2=O)C(O)C1O (stereo not shown) | Phospho-N-acetylmuramoyl-pentapeptide-transferase (mraY, Aquifex aeolicus, UniProt O66465, H325A) | ITC |  | H325A mutant |  | ΔH | -11.3 ± 0.7 kcal/mol
CC[C@H](C)[C@H](NC(=O)CNC(C)=O)C(=O)N[C@@H](CCCNC(=N)N)C(=O)N[C@@H](CCC(=O)O)C(=O)N[C@@H](C)C(=O)N[C@H](C(=O)N[C@@H](CC(C)C)C(=O)N[C@@H](CCCNC(=N)N)C(=O)N[C@@H](C)C(=O)N[C@@H](Cc1c[nH]c2ccccc12)C(=O)N[C@@H](CCC(=O)O)C(=O)N[C@@H](CCCNC(=N)N)C(=O)N[C@@H](CCCNC(=N)N)C(=O)N[C@@H](Cc1ccc(O)cc1)C(=O)NCC(=O)N[C@@H](Cc1ccccc1)C(=O)N1CCC[C@H]1C(=O)N[C@@H](CCCNC(=N)N)C(=O)N1CCC[C@H]1C(=O)N[C@@H](CC(C)C)C(=O)N[C@@H](CCCNC(=N)N)C(=O)N[C@@H](CO)C(=O)N[C@@H](CCC(=O)O)C(N)=O)[C@@H](C)O | Antirepressor protein CarS (carS, Myxococcus xanthus, UniProt Q06911) | ITC |  | concentration not given, pH 7.5, 20 °C |  | binding stoichiometry | 0.93 ± 0.01
Cc1ncsc1-c1ccc([C@@H]2CCCCCCNC(=O)C[C@@H]3N=C(c4ccc(cc4)OCCCCC(=O)N[C@@H](C(C)(C)C)C(=O)N4C[C@H](O)C[C@H]4C(=O)N2)c2c(sc(C)c2C)-n2c(C)nnc23)cc1 | Bromodomain-containing protein 4, short isoform (BRD4, Homo sapiens, UniProt O60885) | degrader, immunoblotting, refers to: BRD4 short isoform | PC-3 | 10 nM, 24 h |  | degradation | 84%

Excerpt of the above:
Compound | target | assay | test system | setting | scale | endpoint | result
CCCC[C@H](NC(=O)CNC(=O)[C@@H]1CCCN1C(=O)CNC(=O)[C@@H]1CCCN1C(=O)CNC(=O)[C@@H]1CCCN1C(=O)CNC(=O)[C@@H]1CCCN1C(=O)CNC(=O)[C@@H]1CCCN1C(=O)CNC(=O)[C@@H]1CCCN1C(=O)CNC(=O)[C@@H]1CCCN1C(=O)CNC(=O)[C@@H]1CCCN1C(=O)CNC(=O)[C@@H]1CCCN1C(=O)[C@H](Cc1c[nH]c2ccccc12)NC(=O)[C@H](CCCNC(=N)N)NC(=O)[C@@H](Cc1ccccc1)NC(=O)[C@H](Cc1c[nH]cn1)NC(=O)[C@H](CCC(=O)O)NC(=O)[C@H](CCCC)NC(=O)[C@H](CO)NC(C)=O)C(=O)NCC(=O)N[C@@H](Cc1c[nH]c2ccccc12)C(=O)N[C@@H](CCCC)C(=O)N[C@@H](CC(=O)O)C(=O)N[C@@H](Cc1ccccc1)C(N)=O | CCKBR/MC4R (Homo sapiens, UniProt P32239+P32245) | bivalent binding | cells expressing CCK2R and MC4R | added: Eu-DTPA-CCK-8 | relative to: single- over dual-expressing cells | IC50 ratio | 2 fold
O=C(CN1CCOc2ccccc21)N(c1ccc(F)cc1)c1ccc(F)cc1 | Proteasome subunit alpha type-2/Proteasome subunit alpha type-6, 20S proteasome (Homo sapiens, UniProt P25787+P60900) | proteolysis, activator, fluorogenic peptide | purified 20S proteasome | added: Suc-LLVY-AMC, Z-LLE-AMC, Boc-LRR-AMC |  | EC200 | 8 ± 0.6 µM
NS(=O)(=O)c1ccc(Nc2nc3nccc(-c4ccc5ccccc5c4)n3n2)cc1 | Carbonic anhydrase 9 (CA9, Homo sapiens, UniProt Q16790) | inhibitor |  |  | relative to: Ki hCA II over Ki CA9 | selectivity ratio | 5.7
